Measurements pooled from the literature.
Each line is one published result; not all experiments were run side by side.
Mode: inhibitor
MPO: Myeloperoxidase (MPO, Homo sapiens, UniProt P05164)
Chain of UniProt P05164 (whole entry, looked up): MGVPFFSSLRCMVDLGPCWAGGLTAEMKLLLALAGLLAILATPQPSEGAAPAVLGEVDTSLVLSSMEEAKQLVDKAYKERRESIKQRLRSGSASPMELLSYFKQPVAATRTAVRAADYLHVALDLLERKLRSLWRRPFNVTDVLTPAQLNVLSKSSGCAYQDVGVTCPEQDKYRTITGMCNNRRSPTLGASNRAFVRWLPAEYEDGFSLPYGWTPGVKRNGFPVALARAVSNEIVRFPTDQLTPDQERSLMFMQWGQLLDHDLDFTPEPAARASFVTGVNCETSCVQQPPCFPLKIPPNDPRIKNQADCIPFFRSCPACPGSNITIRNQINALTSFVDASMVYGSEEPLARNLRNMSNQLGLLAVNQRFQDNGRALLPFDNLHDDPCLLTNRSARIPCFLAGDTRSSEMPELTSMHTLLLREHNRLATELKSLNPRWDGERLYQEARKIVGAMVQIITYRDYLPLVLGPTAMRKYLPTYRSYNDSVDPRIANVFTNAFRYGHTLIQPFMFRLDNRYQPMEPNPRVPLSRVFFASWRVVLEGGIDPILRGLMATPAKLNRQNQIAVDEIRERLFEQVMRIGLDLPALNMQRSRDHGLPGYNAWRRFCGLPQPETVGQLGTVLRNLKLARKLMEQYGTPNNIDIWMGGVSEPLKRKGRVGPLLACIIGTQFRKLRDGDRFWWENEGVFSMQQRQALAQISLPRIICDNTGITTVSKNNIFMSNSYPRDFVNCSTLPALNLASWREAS
RET: Proto-oncogene tyrosine-protein kinase receptor Ret (RET, Homo sapiens, UniProt P07949)
Chain of UniProt P07949 (whole entry, looked up): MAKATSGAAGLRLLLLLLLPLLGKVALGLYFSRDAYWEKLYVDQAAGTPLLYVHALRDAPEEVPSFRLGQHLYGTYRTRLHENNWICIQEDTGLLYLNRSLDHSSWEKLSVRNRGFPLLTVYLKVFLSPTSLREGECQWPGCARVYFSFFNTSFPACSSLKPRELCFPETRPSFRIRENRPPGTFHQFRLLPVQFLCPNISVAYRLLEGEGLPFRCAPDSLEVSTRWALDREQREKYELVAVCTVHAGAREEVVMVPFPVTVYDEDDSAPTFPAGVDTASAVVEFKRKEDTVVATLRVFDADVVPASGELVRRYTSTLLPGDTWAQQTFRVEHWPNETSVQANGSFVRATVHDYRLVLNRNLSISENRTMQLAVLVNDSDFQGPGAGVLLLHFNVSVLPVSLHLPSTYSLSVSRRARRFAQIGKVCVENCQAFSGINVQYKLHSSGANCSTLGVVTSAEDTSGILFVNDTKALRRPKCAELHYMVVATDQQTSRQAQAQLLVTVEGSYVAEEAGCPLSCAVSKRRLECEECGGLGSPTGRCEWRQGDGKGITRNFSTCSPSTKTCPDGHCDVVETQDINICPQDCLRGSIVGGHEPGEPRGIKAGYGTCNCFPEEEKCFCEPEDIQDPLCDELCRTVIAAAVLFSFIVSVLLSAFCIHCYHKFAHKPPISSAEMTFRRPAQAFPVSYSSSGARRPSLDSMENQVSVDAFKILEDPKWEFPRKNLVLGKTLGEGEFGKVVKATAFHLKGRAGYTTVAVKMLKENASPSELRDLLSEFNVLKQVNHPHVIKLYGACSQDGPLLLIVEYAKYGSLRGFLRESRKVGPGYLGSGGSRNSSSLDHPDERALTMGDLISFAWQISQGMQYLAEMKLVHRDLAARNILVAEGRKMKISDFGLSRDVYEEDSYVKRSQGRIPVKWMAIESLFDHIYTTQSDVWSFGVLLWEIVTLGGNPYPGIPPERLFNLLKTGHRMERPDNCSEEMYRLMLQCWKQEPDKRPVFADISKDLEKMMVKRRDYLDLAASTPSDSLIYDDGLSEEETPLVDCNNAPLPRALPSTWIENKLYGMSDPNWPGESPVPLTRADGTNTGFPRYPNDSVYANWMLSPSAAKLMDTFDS
SLC2A1: Solute carrier family 2, facilitated glucose transporter member 1 (SLC2A1, Homo sapiens, UniProt P11166)
Chain of UniProt P11166 (whole entry, looked up): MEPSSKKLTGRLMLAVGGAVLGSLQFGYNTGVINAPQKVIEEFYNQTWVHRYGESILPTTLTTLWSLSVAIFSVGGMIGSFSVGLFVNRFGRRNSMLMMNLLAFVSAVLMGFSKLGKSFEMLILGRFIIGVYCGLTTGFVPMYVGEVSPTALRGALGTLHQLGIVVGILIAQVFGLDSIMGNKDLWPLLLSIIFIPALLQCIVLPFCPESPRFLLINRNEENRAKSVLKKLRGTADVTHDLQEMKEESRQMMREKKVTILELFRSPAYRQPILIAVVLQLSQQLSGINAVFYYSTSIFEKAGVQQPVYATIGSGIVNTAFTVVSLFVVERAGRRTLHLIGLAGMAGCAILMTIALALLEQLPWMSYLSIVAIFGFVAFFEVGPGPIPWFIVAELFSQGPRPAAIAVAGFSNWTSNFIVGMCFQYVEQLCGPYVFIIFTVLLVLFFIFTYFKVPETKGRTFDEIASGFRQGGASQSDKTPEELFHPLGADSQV
MAPK3: Mitogen-activated protein kinase 3 (MAPK3, Homo sapiens, UniProt P27361)
Chain of UniProt P27361 (whole entry, looked up): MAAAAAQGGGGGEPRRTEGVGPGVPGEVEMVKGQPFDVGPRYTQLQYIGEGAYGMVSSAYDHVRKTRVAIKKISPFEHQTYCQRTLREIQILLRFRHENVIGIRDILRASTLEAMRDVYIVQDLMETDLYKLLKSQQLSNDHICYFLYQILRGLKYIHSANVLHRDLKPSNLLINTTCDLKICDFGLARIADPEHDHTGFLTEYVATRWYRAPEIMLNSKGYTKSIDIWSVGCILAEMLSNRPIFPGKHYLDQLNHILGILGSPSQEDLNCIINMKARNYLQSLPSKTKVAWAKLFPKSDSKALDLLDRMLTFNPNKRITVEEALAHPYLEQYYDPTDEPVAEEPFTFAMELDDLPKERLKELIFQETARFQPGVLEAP
AAK1: AP2-associated protein kinase 1 (AAK1, Homo sapiens, UniProt Q2M2I8)
Chain of UniProt Q2M2I8 (whole entry, looked up): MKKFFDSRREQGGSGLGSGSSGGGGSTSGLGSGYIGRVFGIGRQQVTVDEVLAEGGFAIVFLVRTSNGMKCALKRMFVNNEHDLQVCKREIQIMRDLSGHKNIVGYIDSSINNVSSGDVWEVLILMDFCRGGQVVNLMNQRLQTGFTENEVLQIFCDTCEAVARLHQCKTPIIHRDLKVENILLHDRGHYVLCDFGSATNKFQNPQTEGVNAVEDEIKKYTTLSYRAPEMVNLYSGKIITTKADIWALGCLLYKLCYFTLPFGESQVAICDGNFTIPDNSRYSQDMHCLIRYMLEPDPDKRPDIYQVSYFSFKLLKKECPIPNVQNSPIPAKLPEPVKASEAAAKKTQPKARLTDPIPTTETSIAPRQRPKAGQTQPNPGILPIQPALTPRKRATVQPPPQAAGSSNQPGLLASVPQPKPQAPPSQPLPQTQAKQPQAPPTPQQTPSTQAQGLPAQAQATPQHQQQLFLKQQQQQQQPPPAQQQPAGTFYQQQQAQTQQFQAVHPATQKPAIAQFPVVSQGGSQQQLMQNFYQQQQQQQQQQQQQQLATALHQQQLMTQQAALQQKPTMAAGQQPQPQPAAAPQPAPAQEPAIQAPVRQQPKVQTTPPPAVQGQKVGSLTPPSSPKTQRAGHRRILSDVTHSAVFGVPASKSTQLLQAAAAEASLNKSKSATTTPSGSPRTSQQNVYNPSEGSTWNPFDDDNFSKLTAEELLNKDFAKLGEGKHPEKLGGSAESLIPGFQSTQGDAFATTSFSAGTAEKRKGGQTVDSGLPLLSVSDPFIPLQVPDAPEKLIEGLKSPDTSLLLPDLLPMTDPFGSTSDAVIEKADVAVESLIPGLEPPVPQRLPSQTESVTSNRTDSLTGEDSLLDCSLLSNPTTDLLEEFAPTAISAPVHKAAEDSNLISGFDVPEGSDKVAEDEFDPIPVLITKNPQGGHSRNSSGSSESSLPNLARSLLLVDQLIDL
Chain of UniProt P51956 (whole entry, looked up): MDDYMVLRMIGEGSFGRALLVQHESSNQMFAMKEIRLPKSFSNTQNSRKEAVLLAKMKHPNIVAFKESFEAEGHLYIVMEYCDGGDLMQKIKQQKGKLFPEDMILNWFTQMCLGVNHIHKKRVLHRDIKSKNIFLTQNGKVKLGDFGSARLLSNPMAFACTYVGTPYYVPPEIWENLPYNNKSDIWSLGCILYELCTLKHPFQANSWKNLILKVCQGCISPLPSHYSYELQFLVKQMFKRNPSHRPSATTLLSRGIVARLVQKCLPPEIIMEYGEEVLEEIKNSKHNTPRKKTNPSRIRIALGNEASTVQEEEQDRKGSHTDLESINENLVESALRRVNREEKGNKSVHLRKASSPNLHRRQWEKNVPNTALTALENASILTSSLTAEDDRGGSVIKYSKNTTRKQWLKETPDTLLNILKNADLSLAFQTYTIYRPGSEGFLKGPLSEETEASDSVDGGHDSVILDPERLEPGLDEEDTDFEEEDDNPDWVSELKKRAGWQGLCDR
Chain of UniProt O14744 (whole entry, looked up): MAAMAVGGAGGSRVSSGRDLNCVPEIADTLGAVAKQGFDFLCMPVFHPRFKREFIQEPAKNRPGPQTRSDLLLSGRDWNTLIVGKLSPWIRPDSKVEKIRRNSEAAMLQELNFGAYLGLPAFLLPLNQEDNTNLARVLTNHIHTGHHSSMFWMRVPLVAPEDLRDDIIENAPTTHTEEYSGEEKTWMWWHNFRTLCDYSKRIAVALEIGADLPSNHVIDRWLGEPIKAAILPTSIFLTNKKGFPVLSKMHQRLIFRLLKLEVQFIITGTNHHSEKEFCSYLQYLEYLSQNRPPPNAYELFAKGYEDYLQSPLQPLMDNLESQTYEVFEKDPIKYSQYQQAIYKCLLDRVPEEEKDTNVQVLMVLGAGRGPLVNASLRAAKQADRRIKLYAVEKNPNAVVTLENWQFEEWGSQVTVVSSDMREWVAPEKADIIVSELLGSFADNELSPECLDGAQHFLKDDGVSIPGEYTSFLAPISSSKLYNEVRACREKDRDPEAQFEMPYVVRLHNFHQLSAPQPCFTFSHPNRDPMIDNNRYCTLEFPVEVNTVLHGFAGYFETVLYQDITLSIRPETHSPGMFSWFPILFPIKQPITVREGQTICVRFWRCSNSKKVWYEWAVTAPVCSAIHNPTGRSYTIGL

target	test	test system	setting	remaining activity [%]	Compound
PRMT5 (Homo sapiens, UniProt O14744)	enzyme activity, radiometric	–	20 µM	83.6	N=C(N)c1ccc(-c2ccc(-c3ccc(C(=N)N)nc3)o2)cc1
MPO	enzyme activity	–	2.5 µM	3.8	NC/C(=C\F)COc1cccc(Cn2c(=S)[nH]c(=O)c3[nH]cnc32)c1
RET	enzyme activity, radiometric	–	0.1 µM	112	Cc1ccc(NC(=O)Nc2cc3c(cc2Oc2ccccc2)n(C)c(=O)n3C)cc1C
TSSK4 (Homo sapiens, UniProt Q6SA08)	enzyme activity	–	1 µM	104	COc1cc(-c2cncc3c2CN(C)Cc2cc(N4CCNCC4)ccc2-3)cc(OC)c1OC
RET	enzyme activity, radiometric	–	10 µM	103	O=C(Nc1ccc(NC(=O)c2ccco2)cc1C(F)(F)F)Nc1ccc(NC(=O)c2ccco2)cc1C(F)(F)F
SLC2A1	transporter uptake, radiometric	NCI-H1299	30 µM	75	C/C(=N\O)c1ccc(-c2cccc(OC(F)(F)F)c2)c(Cl)c1O
MAPK3	enzyme activity, radiometric	–	1 µM, 20 min	101	CC[C@H](C)[C@H](NC(=O)[C@H](CCC(N)=O)NC(=O)[C@@H](NC(=O)[C@H](CCSC)NC(=O)[C@H](CCCCN)NC(=O)[C@H](CO)NC(=O)[C@@H](NC(=O)[C@H](CCSC)NC(=O)[C@H](CC(C)C)NC(=O)[C@H](CC(N)=O)NC(=O)[C@@H](NC(=O)[C@@H](NC(=O)[C@H](CO)NC(=O)[C@H](CC(C)C)NC(=O)[C@H](C)NC(=O)[C@H](CCCNC(=N)N)NC(=O)[C@H](CCC(=O)O)NC(=O)[C@H](Cc1ccc(O)cc1)NC(=O)[C@H](Cc1ccccc1)NC(=O)[C@H](C)NC(=O)[C@H](CC(N)=O)NC(=O)[C@@H](N)CCCCN)[C@@H](C)CC)[C@@H](C)CC)[C@@H](C)O)C(C)C)C(=O)N[C@@H](CC(N)=O)C(=O)N[C@H](C(=O)O)C(C)C
MPO	enzyme activity	–	5 µM	8.55	CC(C)OCCn1c(=S)[nH]c(=O)c2[nH]ccc21
SLC2A1	transporter uptake, radiometric	NCI-H1299	30 µM	9	C/C(=N\O)c1ccc(-c2ccc(O)c(Cl)c2)c(Cl)c1O
RET	enzyme activity, radiometric	–	0.1 µM	103	COc1ccc(NC(=O)Nc2ccccc2-c2nc(-c3ccoc3)n[nH]2)cc1
AAK1	enzyme activity, radiometric	–	1 µM	4	CN1CCc2cc(Nc3ncc(C4CC4)c(NCCCNC(=O)C4CCC4)n3)ccc2C1
TSSK1B (Homo sapiens, UniProt Q9BXA7)	enzyme activity	–	1 µM	96.8	CC(C)(O)[C@H]1CC[C@H](Nc2ccc3ncc(-c4cccc(C(F)(F)F)c4)n3n2)CC1
MAPK3	enzyme activity, radiometric	–	250 µM, 20 min	89	CC[C@H](C)[C@H](NC(=O)[C@H](CCC(N)=O)NC(=O)[C@H](CC(C)C)NC(=O)[C@H](CCSC)NC(=O)[C@H](CCCCN)NC(=O)[C@H](CO)NC(=O)[C@H](CO)NC(=O)[C@H](CCSC)NC(=O)[C@H](CC(C)C)NC(=O)[C@H](CC(N)=O)NC(=O)[C@@H](NC(=O)[C@@H](NC(=O)[C@H](CO)NC(=O)[C@H](CC(C)C)NC(=O)[C@H](CS)NC(=O)[C@H](CCCNC(=N)N)NC(=O)[C@H](CC(=O)O)NC(=O)[C@H](Cc1c[nH]c2ccccc12)NC(=O)[C@H](Cc1ccccc1)NC(=O)[C@H](C)NC(=O)[C@H](CCC(=O)O)NC(=O)[C@@H](N)CCCCN)C(C)C)[C@@H](C)CC)C(=O)N[C@@H](CC(N)=O)C(=O)N[C@@H](C)C(=O)O
SLC2A1	transporter uptake, radiometric	NCI-H1299	30 µM	81	C/C(=N\O)c1ccc(-c2ccc(OC(F)(F)F)cc2)c(Cl)c1O
MPO	enzyme activity	–	0.3125 µM	97.1	COc1ccc(Cl)cc1-c1cc(=O)[nH]c(=S)n1CC(N)=O
RET	enzyme activity, radiometric	–	10 µM	83.7	COc1ccccc1NC(=O)Nc1ccc2nc(NC(=O)c3ccccc3)sc2c1
AAK1	enzyme activity, radiometric	–	1 µM	5	O=C(Nc1cccc(Nc2ncc(Br)c(NCCc3cnc[nH]3)n2)c1)N1CCCC1
RET	enzyme activity, radiometric	–	10 µM	28.1	Nc1nc(SCC(=O)Nc2ccc3c(c2)OCO3)[nH]c(=O)c1NC(=O)c1ccc(F)c(F)c1
PRKX (Homo sapiens, UniProt P51817)	enzyme activity	–	10 µM	1	CCCOc1ccc(OC)c(F)c1C(=O)c1ccc(C(=O)N[C@@H]2CNC[C@H]2NC(=O)c2ccc3[nH]ncc3c2)cc1
RET	enzyme activity, radiometric	–	0.1 µM	113	O=C(Nc1ccc(NC(=O)c2ccoc2)cc1C(F)(F)F)Nc1ccc(NC(=O)c2ccoc2)cc1C(F)(F)F
NEK3 (Homo sapiens, UniProt P51956)	enzyme activity, radiometric	–	1 µM	104	CNc1ncc2c(/C=C/C(=O)N3CCC(OC)CC3)nn(Cc3cccc(C(F)(F)F)c3)c2n1
RET	enzyme activity, radiometric	–	10 µM	85	CCOc1ccc(NC(=O)Nc2cc(OC)c3nc(NC(=O)c4ccccc4)sc3c2)cc1
PIP5K1A (Homo sapiens, UniProt Q99755)	enzyme activity, ADP detection	–	10 µM	91	Cc1cc([C@@H](C)Nc2ccccc2C(=O)O)c2nc(N3CCC(F)(F)CC3)c(C#N)c(=O)n2c1

Excerpt of the above:
target	test	test system	setting	remaining activity [%]	Compound
PRMT5 (Homo sapiens, UniProt O14744)	enzyme activity, radiometric	–	20 µM	83.6	N=C(N)c1ccc(-c2ccc(-c3ccc(C(=N)N)nc3)o2)cc1
MPO	enzyme activity	–	2.5 µM	3.8	NC/C(=C\F)COc1cccc(Cn2c(=S)[nH]c(=O)c3[nH]cnc32)c1
RET	enzyme activity, radiometric	–	0.1 µM	112	Cc1ccc(NC(=O)Nc2cc3c(cc2Oc2ccccc2)n(C)c(=O)n3C)cc1C
